Experimental data gathered from unrelated publications.
Compare with care: the assays were run in different laboratories. “And” joins repeats or separate records; there may be more than shown. ± marks the error that the study gave. Converted amounts (≈) assume the structure as drawn.

O=C(N/N=C/c1ccc2c(ccc[n+]2Cc2ccccc2)c1)c1ccc2ccc(C(=O)N/N=C/c3ccc4c(ccc[n+]4Cc4ccccc4)c3)nc2n1  ΔTm (22CTA telomeric G4-DNA antiparallel; FRET melting; 1 µM, K10 buffer, DNA 0.2 µM): 17.3 ± 0.3 °C
Nc1ncc(-c2cc(-c3cnn(CC(F)(F)F)c3)ncc2F)nc1C(=O)NC1CNCC(F)C1 (stereo not drawn)  remaining binding (MLK1; KINOMEscan; 1 µM; relative to: DMSO control): 89%
COC1CN([C@H]2CC[C@H]([C@@]3(C)Oc4c(Cl)cc(C(=O)NCc5c(SC)cc(C)[nH]c5=O)c(C)c4O3)CC2)C1  log2 fold change (RNA-seq, refers to: SCARF2 mouse homolog; mouse, HT-1376 xenograft, whole blood; dose not given; relative to: vehicle): 0.447
COC1OC(C)C(OS(=O)(=O)O)C(OC2OC(C)C(OS(=O)(=O)O)C(OC3OC(C)C(OS(=O)(=O)O)C(OC4OC(C)C(OS(=O)(=O)O)C(OC5OC(C)C(OS(=O)(=O)O)C(OC6OC(C)C(OS(=O)(=O)O)C(OC7OC(C)C(OS(=O)(=O)O)C(OS(=O)(=O)O)C7OS(=O)(=O)O)C6OS(=O)(=O)O)C5OS(=O)(=O)O)C4OS(=O)(=O)O)C3OS(=O)(=O)O)C2OS(=O)(=O)O)C1OS(=O)(=O)O (stereo not drawn)  activated partial thromboplastin time (human plasma; 128 µg/mL): 395.1 ± 3 s
c1ccc(-c2n[nH]cc2-c2ccnc3ccccc23)nc1  log2 fold change (AKL1 (Candida albicans); kinase binding, MIB/MS competition; Candida albicans lysate; 10 µM; relative to: DMSO): -0.18
C[n+]1ccc(/C=N/NC(=O)C(=O)N/N=C/c2cc[n+](C)c3ccccc23)c2ccccc21  ΔTm (22CTA telomeric G4-DNA antiparallel; FRET melting; 1 µM, K10 buffer, DNA 0.2 µM): 3.2 ± 1.6 °C
C=CC(=O)N1[C@@H](c2ccc3c(c2)OCO3)c2[nH]c3ccccc3c2C[C@H]1C(=O)N1CCN(C)CC1  relative co-enrichment (human cyclin E1 wild type-3xFLAG:CDK2; co-IP with TMT proteomics, refers to: TRIM21; concentration not given, P19474; relative to: wild type DMSO): 87%
C=CC(=O)Nc1cccc(Cn2ncc3cnc(Nc4cnn(CCOC)c4)nc32)c1  percent of control (CAMK1G human; binding, KINOMEscan; 100 nM; lower = stronger binding): 97%
O=C(CC(F)(F)F)Nc1ccc(C2CCCCC2)cc1  hepatic clearance (liver microsome stability; cynomolgus liver microsomes; 1 µM): 41 mL/min/kg
O=c1c(Oc2ccccc2)c(C(F)(F)F)oc2c(O)c(O)ccc12  Cdc34b-ubiquitin remaining (ROC1-CUL1 E3 subcomplex; Cdc34-ubiquitin discharge; 3 µM; relative to: input): 2.1%
COC1OC(C)C(OS(=O)(=O)O)C(OC2OC(C)C(OS(=O)(=O)O)C(OC3OC(C)C(OS(=O)(=O)O)C(OC4OC(C)C(OS(=O)(=O)O)C(OS(=O)(=O)O)C4O)C3O)C2O)C1O (stereo not drawn)  activated partial thromboplastin time (human plasma; 128 µg/mL): 34 ± 0.5 s
CC[n+]1cccc2cc(/C=N/NC(=O)c3ccc4ccc5ccc(C(=O)N/N=C/c6ccc7c(ccc[n+]7CC)c6)nc5c4n3)ccc21  ΔTm (22CTA telomeric G4-DNA antiparallel; FRET melting; 1 µM, K10 buffer, DNA 0.2 µM, together with: ds26 10 µM): 22.5 ± 0.4 °C
Cc1ncsc1-c1ccc(C(C)NC(=O)C2CC(O)CN2C(=O)C(NC(=O)CCCCCCCCCCN2CCCC(Nc3ncc(Cl)c(Nc4ccccc4S(=O)(=O)C(C)C)n3)C2)C(C)(C)C)cc1 (stereo not drawn)  log2 fold change (22Rv1; RNA-seq, refers to: ZNF347 mRNA; concentration not given; relative to: DMSO): -1.98
COC1OC(C)C(OC2OC(C)C(O)C(OC3OC(C)C(OC4OC(C)C(O)C(OC5OC(C)C(OC6OC(C)C(O)C(OC7OC(C)C(OC8OC(C)C(O)C(OC9OC(C)C(OC%10OC(C)C(O)C(OS(=O)(=O)O)C%10OS(=O)(=O)O)C(OS(=O)(=O)O)C9OS(=O)(=O)O)C8OS(=O)(=O)O)C(OS(=O)(=O)O)C7OS(=O)(=O)O)C6OS(=O)(=O)O)C(OS(=O)(=O)O)C5OS(=O)(=O)O)C4OS(=O)(=O)O)C(OS(=O)(=O)O)C3OS(=O)(=O)O)C2OS(=O)(=O)O)C(OS(=O)(=O)O)C1OS(=O)(=O)O (stereo not drawn)  activated partial thromboplastin time (human plasma; 64 µg/mL): 84.3 s and 83.5 s
O=C(NCCO)c1ccc([C@H]2[C@@H](F)[C@@H](F)C[C@@H](F)[C@H]2F)cc1  hepatic clearance (hepatocyte stability; cryopreserved rat hepatocytes; 1 µM): 10 mL/min/kg
CO[C@@H]1[C@@H](OC(N)=O)[C@@H](O)[C@H](Oc2ccc3c(O)c(NC(=O)c4ccc(O)c(CC=C(C)C)c4)c(=O)oc3c2C)OC1(C)C  colony survival (HCT-116 BRCA2 wild-type; 100 µM, mean of replicates A, B; relative to: untreated): 84.6%
O=C(N/N=C/c1cc[n+](Cc2ccccc2)c2ccccc12)N/N=C/c1cc[n+](Cc2ccccc2)c2ccccc12  ΔTm (22CTA telomeric G4-DNA antiparallel; FRET melting; 1 µM, K10 buffer, DNA 0.2 µM): 13.1 ± 0.8 °C
COC1OC(C)C(OS(=O)(=O)O)C(OC2OC(C)C(OS(=O)(=O)O)C(OC3OC(C)C(OS(=O)(=O)O)C(OS(=O)(=O)O)C3O)C2O)C1O (stereo not drawn)  activated partial thromboplastin time (human plasma; 128 µg/mL): 42.4 ± 0.5 s
O=C(N/N=C/c1ccc(C[n+]2ccccc2)cc1)c1ccc2ccc(C(=O)N/N=C/c3ccc(C[n+]4ccccc4)cc3)nc2n1  ΔTm (22CTA telomeric G4-DNA antiparallel; FRET melting; 1 µM, K10 buffer, DNA 0.2 µM): 15.2 ± 0.4 °C
Cc1cc(Cl)cc(S(C)=NC#N)c1NC(=O)c1cc(Br)nn1-c1ncccc1Cl (stereo not drawn)  corrected larval mortality (Plutella xylostella; Raphanus sativus field; 50 ppm, 72 h, 10% wettable powder): 90.4%
C[n+]1ccc(/C=N/NC(=O)c2cc(C(=O)N/N=C/c3cc[n+](C)c4ccccc34)ncn2)c2ccccc21  ΔTm (22CTA telomeric G4-DNA antiparallel; FRET melting; 1 µM, K10 buffer, DNA 0.2 µM, together with: ds26 10 µM): 3.6 ± 0.6 °C
COCC1CN(C2CCN(c3cc(OC)c(Nc4ncc(Br)c(Nc5ccc6c(c5P(C)(C)=O)OCCO6)n4)cc3C)CC2)C1  disease control rate (RECIST 1.1; advanced EGFR-mutant NSCLC patients; 90 mg once daily): 0%
C[n+]1cc(/C=N/NC(=O)C(=O)N/N=C/c2cc3ccccc3[n+](C)c2)cc2ccccc21  ΔTm (22CTA telomeric G4-DNA antiparallel; FRET melting; 1 µM, K10 buffer, DNA 0.2 µM, together with: ds26 10 µM): 2.2 ± 0.6 °C
C=C(NC(=O)c1csc(-c2nc3c(cc2O)-c2nc(cs2)C(=O)NC(C(C)O)C(=O)NC(=C(C)OC)c2nc(cs2)C(=O)NC2c4nc(cs4)C(=O)NC(COC(=O)c4c5c6c(cccc6n4O)COC(=O)C(OC4CC(C)(O)C(N(C)C)C(C)O4)C2OC5)c2nc-3cs2)n1)C(N)=O (stereo not drawn)  MIC50 (Streptococcus pyogenes; broth microdilution): 7.8 ng/mL (≈ 5.43 nM)
